Experimental data of several laboratories.
Every numbered part comes from another study and shows a few of its results, in no order.
Chain of UniProt P11802 (whole entry, looked up): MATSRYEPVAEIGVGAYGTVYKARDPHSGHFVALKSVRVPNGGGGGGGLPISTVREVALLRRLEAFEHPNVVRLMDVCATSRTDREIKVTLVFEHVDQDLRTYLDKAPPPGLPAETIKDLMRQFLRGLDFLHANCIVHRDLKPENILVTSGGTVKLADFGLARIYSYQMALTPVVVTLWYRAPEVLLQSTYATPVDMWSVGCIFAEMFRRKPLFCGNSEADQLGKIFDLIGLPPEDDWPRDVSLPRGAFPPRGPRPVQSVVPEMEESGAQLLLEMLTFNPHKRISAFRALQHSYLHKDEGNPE
Chain of UniProt P54760 (whole entry, looked up): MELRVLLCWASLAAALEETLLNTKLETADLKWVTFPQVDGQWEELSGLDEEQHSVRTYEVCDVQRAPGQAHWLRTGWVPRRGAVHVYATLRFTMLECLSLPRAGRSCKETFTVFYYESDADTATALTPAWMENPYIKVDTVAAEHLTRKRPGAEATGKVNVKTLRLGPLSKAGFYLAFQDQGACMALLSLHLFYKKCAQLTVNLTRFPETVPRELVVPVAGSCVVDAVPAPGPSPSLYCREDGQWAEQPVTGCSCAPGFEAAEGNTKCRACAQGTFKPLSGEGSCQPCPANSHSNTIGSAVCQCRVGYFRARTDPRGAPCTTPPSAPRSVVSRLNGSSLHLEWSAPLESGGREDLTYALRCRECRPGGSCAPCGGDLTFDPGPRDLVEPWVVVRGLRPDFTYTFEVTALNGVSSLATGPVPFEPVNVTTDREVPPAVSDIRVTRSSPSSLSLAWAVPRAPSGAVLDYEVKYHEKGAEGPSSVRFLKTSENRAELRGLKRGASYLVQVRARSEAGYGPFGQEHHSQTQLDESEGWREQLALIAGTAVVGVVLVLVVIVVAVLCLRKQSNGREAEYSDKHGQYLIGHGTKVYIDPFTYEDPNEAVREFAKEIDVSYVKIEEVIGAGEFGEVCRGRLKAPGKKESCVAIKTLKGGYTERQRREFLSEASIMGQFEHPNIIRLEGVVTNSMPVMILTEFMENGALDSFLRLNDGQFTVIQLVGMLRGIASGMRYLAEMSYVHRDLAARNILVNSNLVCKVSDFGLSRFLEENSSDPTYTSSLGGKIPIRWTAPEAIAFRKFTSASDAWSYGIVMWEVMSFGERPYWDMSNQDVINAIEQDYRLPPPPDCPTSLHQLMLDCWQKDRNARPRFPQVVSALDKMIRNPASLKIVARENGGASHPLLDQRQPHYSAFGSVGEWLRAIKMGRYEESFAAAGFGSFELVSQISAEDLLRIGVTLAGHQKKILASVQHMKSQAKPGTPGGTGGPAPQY
Chain of UniProt Q13470 (whole entry, looked up): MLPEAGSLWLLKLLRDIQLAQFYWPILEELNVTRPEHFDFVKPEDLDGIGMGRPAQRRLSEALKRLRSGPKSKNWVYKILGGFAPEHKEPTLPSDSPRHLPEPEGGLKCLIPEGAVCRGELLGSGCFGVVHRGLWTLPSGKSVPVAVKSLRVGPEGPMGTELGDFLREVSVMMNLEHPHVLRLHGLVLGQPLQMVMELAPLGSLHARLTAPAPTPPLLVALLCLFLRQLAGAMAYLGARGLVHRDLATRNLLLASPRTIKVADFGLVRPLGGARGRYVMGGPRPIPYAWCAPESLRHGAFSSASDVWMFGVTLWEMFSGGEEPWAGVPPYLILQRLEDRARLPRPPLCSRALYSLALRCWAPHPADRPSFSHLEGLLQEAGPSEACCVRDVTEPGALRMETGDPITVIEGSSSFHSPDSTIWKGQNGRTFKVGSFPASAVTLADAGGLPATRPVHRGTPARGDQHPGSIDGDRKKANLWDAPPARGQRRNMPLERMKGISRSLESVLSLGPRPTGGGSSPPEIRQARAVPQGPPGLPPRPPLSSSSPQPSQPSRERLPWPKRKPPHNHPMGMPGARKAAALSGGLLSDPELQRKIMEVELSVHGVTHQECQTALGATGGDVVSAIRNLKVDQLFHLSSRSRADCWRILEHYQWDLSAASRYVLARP
Chain of UniProt Q6XUX3 (whole entry, looked up): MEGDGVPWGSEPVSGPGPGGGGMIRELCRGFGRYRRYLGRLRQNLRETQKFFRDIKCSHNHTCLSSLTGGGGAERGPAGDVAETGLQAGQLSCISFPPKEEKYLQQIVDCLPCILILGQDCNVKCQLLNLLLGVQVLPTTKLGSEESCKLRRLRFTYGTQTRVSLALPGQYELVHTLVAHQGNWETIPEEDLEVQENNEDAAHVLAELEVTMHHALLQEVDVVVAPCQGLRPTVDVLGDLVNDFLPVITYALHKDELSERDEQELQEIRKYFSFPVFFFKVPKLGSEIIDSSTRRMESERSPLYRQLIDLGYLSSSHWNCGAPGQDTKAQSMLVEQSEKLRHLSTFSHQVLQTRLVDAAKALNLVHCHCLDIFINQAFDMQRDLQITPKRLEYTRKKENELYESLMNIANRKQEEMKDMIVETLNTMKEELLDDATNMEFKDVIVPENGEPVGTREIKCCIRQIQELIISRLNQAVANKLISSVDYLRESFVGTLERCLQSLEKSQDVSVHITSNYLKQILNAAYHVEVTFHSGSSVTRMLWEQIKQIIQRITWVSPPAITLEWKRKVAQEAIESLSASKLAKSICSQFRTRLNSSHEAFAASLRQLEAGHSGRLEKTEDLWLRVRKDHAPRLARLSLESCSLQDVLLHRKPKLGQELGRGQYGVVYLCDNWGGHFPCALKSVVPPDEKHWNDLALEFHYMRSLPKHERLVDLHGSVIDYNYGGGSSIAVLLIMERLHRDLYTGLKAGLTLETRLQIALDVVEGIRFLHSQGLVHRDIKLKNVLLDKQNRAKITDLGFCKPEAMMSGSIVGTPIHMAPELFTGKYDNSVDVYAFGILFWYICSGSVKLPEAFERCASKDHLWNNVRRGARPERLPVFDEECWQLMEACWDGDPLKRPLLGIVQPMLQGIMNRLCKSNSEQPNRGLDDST
Chain of UniProt Q8IY84 (whole entry, looked up): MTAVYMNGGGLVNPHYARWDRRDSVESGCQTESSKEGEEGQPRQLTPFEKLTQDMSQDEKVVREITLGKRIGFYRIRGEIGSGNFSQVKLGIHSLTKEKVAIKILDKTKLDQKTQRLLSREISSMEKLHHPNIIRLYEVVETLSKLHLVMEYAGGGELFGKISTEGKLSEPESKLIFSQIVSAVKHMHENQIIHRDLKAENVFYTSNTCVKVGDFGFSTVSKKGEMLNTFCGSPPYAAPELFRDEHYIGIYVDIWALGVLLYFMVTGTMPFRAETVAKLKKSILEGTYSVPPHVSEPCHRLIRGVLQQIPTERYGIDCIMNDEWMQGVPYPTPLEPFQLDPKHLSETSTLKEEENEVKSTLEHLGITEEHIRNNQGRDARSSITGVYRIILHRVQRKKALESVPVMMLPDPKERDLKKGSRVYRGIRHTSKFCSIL
Chain of UniProt Q13163 (whole entry, looked up): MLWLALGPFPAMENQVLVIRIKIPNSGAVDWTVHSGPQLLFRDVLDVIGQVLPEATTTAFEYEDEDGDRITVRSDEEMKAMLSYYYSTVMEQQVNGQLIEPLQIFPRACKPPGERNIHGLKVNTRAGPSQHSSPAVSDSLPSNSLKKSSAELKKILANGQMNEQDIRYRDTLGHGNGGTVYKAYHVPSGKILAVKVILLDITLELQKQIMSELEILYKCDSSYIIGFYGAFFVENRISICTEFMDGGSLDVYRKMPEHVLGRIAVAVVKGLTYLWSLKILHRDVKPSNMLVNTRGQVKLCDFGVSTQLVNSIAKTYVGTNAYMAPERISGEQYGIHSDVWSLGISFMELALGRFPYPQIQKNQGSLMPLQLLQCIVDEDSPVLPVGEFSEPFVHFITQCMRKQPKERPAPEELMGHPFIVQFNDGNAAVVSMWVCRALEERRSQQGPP

Block 1
SMILES: NS(=O)(=O)c1cc(NC(=O)C2(c3ccccc3Cl)CC2)ccc1Oc1cccc(Cl)c1
Effect on: cell-free assay
Technique: competition with immobilised ligand
Concentration: 1 µM
Quantity: remaining binding
target = MAP4K4 (Homo sapiens, UniProt O95819); value = 100%
target = EPHB4 (Homo sapiens, UniProt P54760); value = 57%
target = Tyrosine-protein kinase ABL1, phosphorylated (ABL1, Homo sapiens, UniProt P00519, T315I); value = 75%
target = MAPK10 (Homo sapiens, UniProt P53779); value = 100%
target = NIM1K (Homo sapiens, UniProt Q8IY84); value = 86%
target = CDK8 (Homo sapiens, UniProt P49336); value = 91%
target = Cyclin-dependent kinase 4, with cyclin D1 (CDK4, Homo sapiens, UniProt P11802); value = 95%
target = MARK3 (Homo sapiens, UniProt P27448); value = 92%
target = MAP3K13 (Homo sapiens, UniProt O43283); value = 100%

Block 2
Species: mouse
Matrix: microsomes or S9
Concentration: 2 µM
Time: 0.5 h
Quantity: remaining compound
Structure (SMILES) = OCCN1CCN(Cc2nc(O)c3ccccc3n2)CC1; value = > 100%
Structure (SMILES) = Cc1nn(C)cc1-c1cc(-c2cn(C)nc2C)n(CC(=O)N(C)Cc2ccn(C)n2)n1; value = 98.7%
Structure (SMILES) = CC1=CC(C)(C)N2C(=O)C3(NCCc4c3[nH]c3ccccc43)c3cccc1c32 (centres unmarked); value = 0.157%
Structure (SMILES) = COc1cc(Br)c(S(=O)(=O)NCCOc2ccc(C(C)(C)C)cc2)cc1OC; value = 1.95%
Structure (SMILES) = COc1ccc(OCCNC(=O)c2cc(S(=O)(=O)N(C)C)c(Cl)cc2Cl)cc1; value = 1.46%
Structure (SMILES) = CCN(CC)CCCC(C)NCc1c(C)nn(-c2ccc(F)cc2)c1C (centres unmarked); value = 62.5%

Block 3
Target: Platelet-derived growth factor receptor beta (PDGFRB, Homo sapiens, UniProt P09619)
Chain of UniProt P09619 (whole entry, looked up): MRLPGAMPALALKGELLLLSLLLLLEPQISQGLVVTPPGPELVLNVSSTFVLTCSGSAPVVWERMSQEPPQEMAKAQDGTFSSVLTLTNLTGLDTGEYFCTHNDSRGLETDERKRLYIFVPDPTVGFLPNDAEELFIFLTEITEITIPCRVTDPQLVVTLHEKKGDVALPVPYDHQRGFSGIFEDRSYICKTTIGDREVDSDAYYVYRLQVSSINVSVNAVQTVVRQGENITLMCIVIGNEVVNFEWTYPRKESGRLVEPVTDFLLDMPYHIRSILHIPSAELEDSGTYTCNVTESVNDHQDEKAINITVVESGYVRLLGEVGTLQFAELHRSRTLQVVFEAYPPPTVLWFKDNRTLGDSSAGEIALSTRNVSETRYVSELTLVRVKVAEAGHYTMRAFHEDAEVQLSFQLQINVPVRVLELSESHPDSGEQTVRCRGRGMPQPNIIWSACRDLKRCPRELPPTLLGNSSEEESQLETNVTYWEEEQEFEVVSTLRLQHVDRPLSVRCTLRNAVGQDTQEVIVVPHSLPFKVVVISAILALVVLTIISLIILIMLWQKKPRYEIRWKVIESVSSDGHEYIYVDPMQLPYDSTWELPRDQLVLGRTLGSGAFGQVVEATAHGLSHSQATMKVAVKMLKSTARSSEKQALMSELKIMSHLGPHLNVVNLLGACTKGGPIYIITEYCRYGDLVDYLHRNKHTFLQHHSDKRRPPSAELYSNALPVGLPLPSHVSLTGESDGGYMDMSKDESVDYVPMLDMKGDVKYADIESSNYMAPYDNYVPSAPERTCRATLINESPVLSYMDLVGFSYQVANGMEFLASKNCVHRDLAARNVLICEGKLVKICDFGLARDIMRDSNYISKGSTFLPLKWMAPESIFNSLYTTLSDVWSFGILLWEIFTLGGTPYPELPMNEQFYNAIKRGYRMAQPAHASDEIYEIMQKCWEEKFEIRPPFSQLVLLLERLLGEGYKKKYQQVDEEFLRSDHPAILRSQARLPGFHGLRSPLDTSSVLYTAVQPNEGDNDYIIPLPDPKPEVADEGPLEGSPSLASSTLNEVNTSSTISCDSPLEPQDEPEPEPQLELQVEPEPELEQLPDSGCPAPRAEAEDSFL
Effect on: enzyme activity
Action: inhibitor
Concentration: 0.5 µM
Baseline: control
Quantity: remaining activity
SMILES = COc1ccc(OC)c2c(=S)c3ccccc3[nH]c12; value = 98.1%
SMILES = COc1cc2nccc(Oc3ccc(NC(=S)NC(=O)c4ccccc4C)cc3)c2cc1OC; value = 26.7%
SMILES = O=C(Nc1cccc(Nc2cc(Nc3cccc(C(F)(F)F)c3)ncn2)c1)C1CC1; value = 101%
SMILES = Cc1ccc(NC(=O)c2ccc(CN3CCN(C)CC3)cc2)cc1Nc1nc(-c2cccnc2)cs1; value = 17.3%
SMILES = O=C1NC(=O)C(c2cn(CCCO)c3ncccc23)=C1c1cnccn1; value = 102%
SMILES = Cc1cccc(-c2[nH]c(C(C)(C)C)nc2-c2ccc3c(c2)OCO3)n1; value = 106%
SMILES = O=C(CCCc1ccc(-c2ccccc2F)cc1)Nc1ccc(O)cc1; value = 98.2%
SMILES = OCC(O)CCON=C1C(c2c(O)[nH]c3ccccc23)=Nc2ccccc21 (centres unmarked); value = 42.8%
SMILES = COc1ccc(CNC(=O)Nc2ncc([N+](=O)[O-])s2)cc1; value = 125%
SMILES = Nc1[nH]nc2nc3ccccc3nc12; value = 98.1%
SMILES = Nc1ccc2ncnc(NCCc3ccc(Oc4ccccc4)cc3)c2c1; value = 105%
SMILES = COc1cc2ncnc(Nc3ccc(F)c(Cl)c3)c2cc1OCCCN1CCOCC1; value = 93.9%
SMILES = NCCNc1ncc(C(N)=O)c(Nc2cccc(C(F)(F)F)c2)n1; value = 78.2%
SMILES = Cc1nc(-c2ccccc2)c(-c2ccncc2)o1; value = 109%

Block 4
Structure (SMILES): CN1CCN(C(=O)c2ccc(NC(=O)Nc3ccc(N(C)c4ccnc(Nc5ccc(CS(C)(=O)=O)cc5)n4)cc3)cc2)CC1
Effect on: binding
Concentration: 1 µM
Quantity: remaining binding
target = MAP2K5 (Homo sapiens, UniProt Q13163); assay = competition with immobilised ligand; value = 0.1%
target = DSTYK (Homo sapiens, UniProt Q6XUX3); value = 5.4%
target = CDKL5 (Homo sapiens, UniProt O76039); value = 100%
target = TNK1 (Homo sapiens, UniProt Q13470); assay = competition with immobilised ligand; value = 6.7%
target = Ribosomal protein S6 kinase alpha-1, N-terminal kinase domain (RPS6KA1, Homo sapiens, UniProt Q15418); assay = competition with immobilised ligand; value = 100%
target = PRKAA2 (Homo sapiens, UniProt P54646); value = 87%

For quick reference, copied from above (block 1):
target = Cyclin-dependent kinase 4, with cyclin D1 (CDK4, Homo sapiens, UniProt P11802); value = 95%
target = MAP3K13 (Homo sapiens, UniProt O43283); value = 100%
target = MARK3 (Homo sapiens, UniProt P27448); value = 92%
